Assay results gathered from unrelated publications.
Compare with care: the assays were run in different laboratories. Numbers after ± are the reported error.
Organism: Salmonella typhimurium

N#C[C@@]1(n2ccc(N)nc2=O)O[C@H](CO)[C@@H](O)[C@H]1O
viability (TA1535; 2.5 µM, without S9): 106%

CC(=O)N1CCC(C(=O)N2CCN3C(=O)c4cc(-c5ccccc5)ccc4NC(=O)C3C2)CC1 (stereo not drawn)
revertants per plate (TA1537; 5000 µg/plate, added: rat liver S9): 16

CC(C)N(C)N=O
revertant colonies per plate (mutagenicity, Ames plate incorporation; TA100; 5000 µg/plate, 3 d, without S9, methanol): 178 ± 5

OC(CCN1CC=C(c2ccc(F)cc2)CC1)c1ccc(F)c2ccccc12 (stereo not drawn)
induction factor (genotoxicity, SOS/umu test; TA1535/pSK1002; 0.031 mg/mL, 4 h, with S9, lower range): 0.7

COCCN(CCOC)N=O
revertant colonies per plate (mutagenicity, Ames plate incorporation; TA100; 500 µg/plate, 3 d, without S9, methanol): 124 ± 8

COc1cccc(-c2n[nH]c(SCc3ccccn3)n2)c1OC
revertant colonies per plate (Ames test, plate incorporation; TA100; 0.031 mg/plate, without S9): 110

Fc1ccc(C2=CCNCC2)cc1
induction factor (genotoxicity, SOS/umu test; TA1535/pSK1002; 0.002 mg/mL, 4 h, with S9, full range): 1.1

CNC(=O)c1c(N(C)N=O)ncn1C
revertant colonies per plate (mutagenicity, Ames plate incorporation; TA1537; 150 µg/plate, without S9, methanol): 10.7 ± 5

O=[N+]([O-])c1ccc(N2CCN(CCC(O)c3ccc(F)cc3)CC2)c(C(F)(F)F)c1 (stereo not drawn)
induction factor (genotoxicity, SOS/umu test; TA1535/pSK1002; 0.031 mg/mL, 4 h, without S9, lower range): 1

Cc1cc(C(=O)NC(C)(C)COc2cccc3c2C(N)=NS(=O)(=O)N3)cc(C)n1
revertant ratio (Ames test, confirmatory; TA1535; 100 µg/plate; relative to: solvent control): 0.9

O=[N+]([O-])c1ccc(N2CCC(NCCC(O)c3ccc(F)c4ccccc34)CC2)c(C(F)(F)F)c1 (stereo not drawn)
induction factor (SOS response, SOS/umu test; TA1535/pSK1002, TGA medium; 0.000244 mg/mL, 4 h, added: 10% rat liver S9; relative to: untreated): 0.7

CC(C)N(N=O)C(C)C
revertant colonies per plate (mutagenicity, Ames plate incorporation; TA1535; 1500 µg/plate, without S9, methanol): 26 ± 7

For quick reference, copied from above:
COc1cccc(-c2n[nH]c(SCc3ccccn3)n2)c1OC
revertant colonies per plate (Ames test, plate incorporation; TA100; 0.031 mg/plate, without S9): 110

Fc1ccc(C2=CCNCC2)cc1
induction factor (genotoxicity, SOS/umu test; TA1535/pSK1002; 0.002 mg/mL, 4 h, with S9, full range): 1.1
